Measurements collected from several papers.
A part holds a random share of what one study measured.

Series 1
Target: Interferon regulatory factor 5, full length, phosphomimetic (IRF5, Homo sapiens, UniProt Q13568-2, residues 1-514, S451D/S453D/S456D/S462D)
Method: protein-binding microarray
Molecule type: double-stranded DNA, one strand shown
Matrix: in vitro
Concentration: 940 nM top
Setting: 60-bp whole probe
Together with: salmon DNA 0.4 mg/ml
Baseline: random background probes
Direction: higher = stronger binding
Quantity: fitted relative affinity
All sequences stand within: GCCTAGCAC … GTCTTGATTCGCTTGACGCTGCTG
Sequence = TTAGGTTTCCGGTATCGGTTAGTGCTA; result = 4.85 z-score
Sequence = GATAATTTTTTTCTAAGTAAGTGCTAG; result = 1.2 z-score
Sequence = GACGGTAGCGACTTTCGGGACGTGCTA; result = 0.783 z-score
Sequence = TCAATTCCAGGGTTTTATACTGTGCTA; result = 0.254 z-score
Sequence = TTAGGACTGGGACCGGGTTAGTGCTAG; result = -0.808 z-score
Sequence = GACGAACTGAGTTTCGAGGCGTGCTAG; result = 3.28 z-score
Sequence = TCACATTTCCCTTGCCGACTGTGCTAG; result = 1.25 z-score
Sequence = TTAGGTTGCGGTTCCGGTTAGTGCTAG; result = 2.52 z-score
Sequence = AACGATATCAGTTTCGAGACGTGCTAG; result = 3.71 z-score
Sequence = TTAGATTTCAGTTTCGATAAGTGCTAG; result = 8.54 z-score
Sequence = GACGGTTTCGGGACAGGGGACGTGCTA; result = 7.34 z-score
Sequence = GACGGTTTCGGGTATCTGGACGTGCTA; result = 9.27 z-score
Sequence = TCAACTTTGACTTAAGAACTGTGCTAG; result = 0.0856 z-score
Sequence = GACGATTTCAGTATCAAGACGTGCTAG; result = 1.12 z-score
Sequence = GTAGGTATCCTACTGCTTTAGTGCTAG; result = -0.307 z-score
Sequence = GACGAACTGGGGACTGGAGGCGTGCTA; result = -0.219 z-score
Sequence = GACGGTATCGACACTGGGGACGTGCTA; result = 3.85 z-score
Sequence = TTAGAACAGAGTTTCGATTAGTGCTAG; result = 6.07 z-score
Sequence = GACGGTTTCCTTAGCCTGACGTGCTAG; result = 0.86 z-score

Series 2
Target: Histone acetyltransferase KAT6A, both winged helices, GST fusion (KAT6A, Homo sapiens, UniProt Q92794, residues 1-181)
Method: protein binding microarray
Molecule type: double-stranded DNA, one strand shown
Matrix: in vitro
Concentration: not given
Setting: 8-mer, flanks averaged, mean of 2 arrays, mostly near background
Baseline: not given
Direction: higher = stronger binding
Quantity: E-score
Residues (chain): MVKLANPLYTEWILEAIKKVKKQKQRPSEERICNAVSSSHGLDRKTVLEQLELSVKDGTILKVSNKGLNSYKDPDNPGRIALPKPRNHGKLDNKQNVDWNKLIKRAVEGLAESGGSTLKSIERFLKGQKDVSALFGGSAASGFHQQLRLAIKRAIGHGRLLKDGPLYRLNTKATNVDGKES
Sequence = AGAGGCTG; result = -0.305
Sequence = ACCTTAAT; result = -0.223
Sequence = AGCGTCTC; result = 0.129
Sequence = AAAGACCA; result = -0.203
Sequence = ACTAGTGG; result = -0.211
Sequence = AGGCACGA; result = -0.0996
Sequence = GCAGTGCC; result = -0.0314
Sequence = AATTCCCA; result = -0.31
Sequence = ATCTCGCA; result = -0.0818
Sequence = CAGGCGCG; result = 0.234
Sequence = GGATAGGA; result = -0.116
Sequence = CCGTCTAC; result = 0.169
Sequence = AATATTGA; result = -0.0442
Sequence = GCTTCTCA; result = -0.0921
Sequence = GTTGGCAA; result = -0.157
Sequence = AGTAGCCC; result = -0.0522
Sequence = CGTGCATC; result = -0.0299

Series 3
Target: RING finger protein unkempt homolog, zinc fingers 1-6, GST-SBP tag (UNK, Homo sapiens, UniProt Q9C0B0, residues 30-357)
Method: RNA Bind-n-Seq
Molecule type: RNA
Matrix: in vitro
Concentration: not given
Setting: RNA with constant flanks, human and mouse sites, ends assumed
Baseline: input RNA pool
Direction: higher = stronger binding
Quantity: bound/input enrichment
All sequences stand within: GGGAGUUCUACAGUCCGACGAUC … CAACAGAGGAUUGAGCAUCA
Target sequence (chain): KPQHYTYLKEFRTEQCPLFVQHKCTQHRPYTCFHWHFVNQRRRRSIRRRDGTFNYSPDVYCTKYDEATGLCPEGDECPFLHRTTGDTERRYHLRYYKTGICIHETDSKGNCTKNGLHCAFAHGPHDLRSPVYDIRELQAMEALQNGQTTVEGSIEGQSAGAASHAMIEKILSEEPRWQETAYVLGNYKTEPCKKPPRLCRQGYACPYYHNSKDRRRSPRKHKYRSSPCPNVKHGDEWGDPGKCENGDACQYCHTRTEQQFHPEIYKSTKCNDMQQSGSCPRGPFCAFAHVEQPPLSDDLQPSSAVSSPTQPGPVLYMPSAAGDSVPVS
Sequence = CAGACGAUUGCACGGAAUGCACUUAAGCAGGAAACGGAGGUGGAGCUGUACAACGAAUUUCCUGAACCUAUCAAACUGGACAAGAAUGACCGGGCCAAGGCCUCGGCAGAAAGCUGCAGU; result = 0.0744 ratio
Sequence = AAAACCCAGCAGAAUGUAAUUCAGUAUUUGUUUAUUGGCUGUUUUUUGACAGAUUGUUGAAAUUAAAUGAAUUGAAAGGGAAACUCAGAGUACUAGGACGUUUAUUAAAAGGAAAAAAAU; result = 1.55 ratio
Sequence = GAGAGUGACCAGACAUUAGCAGCUCUGCUCAGCCCUAAAGAAAGUAGUGGAGGAGAAAAAGAAGUACCUCCCCCUCCUAAAGAGACACUGCCUGAUUCAGGAUUUUCUGCCAAUAUUGAG; result = 0.176 ratio
Sequence = CGGGAUGAGGAGGUCAGCUCUGCUGACAUCAGUAGUUCGUCUGAAGUGAUUUCGCAGCACCUAGUAUCUUACAGGAACAUCGAAGAGCUUCAGCAGCAGAAUCAGCGUCUGCUAUUCGCU; result = 0.216 ratio
Sequence = GGAGCAACAAAGCCACUGCGGCCUCCAUUUGGGCCAAGCUCUGACUGCAAUGAUGCCUCUGCCCCGACCCGGGCCUCGCUGUGACUGACAAUGCCGCUGCAUCUUUUCAGCAGUCAUUGA; result = 0.0498 ratio
Sequence = CCGAGCAUUCUGUGUUACCAUCCUGCAAAGCCAUUCCAAUCUCAGUUGCCCAGUGUAAAAGAAGGCAUUUCUGAGGAUCUUCCUGUGAAAAUGCCUUGUCUCUACCUGCAGACAUUAGCU; result = 0.56 ratio
Sequence = AUUAGGGAACUGGAACAAGCCAAUGAUGACCUGGAAAGAGCCAAACGAGCCACAAUCAUGUCCCUGGAAGACUUUGAGCAGCGUUUGAAUCAAGCCAUUGAAAGAAAUGCCUUCCUAGAG; result = 0.235 ratio
Sequence = GACAUGUUCCUGGAAGCUCUGGGCUACACCUGGCAUGACACUUGCUUUGUAUGCUCAGUGUGUUGUGAAAGUUUGGAAGGUCAGACCUUUUUCUCCAAGAAGGACAAGCCCCUGUGUAAG; result = 0.0764 ratio

Series 4
Target: RNA binding protein fox-1 homolog 2, RRM domain, GST-SBP tag (RBFOX2, Homo sapiens, UniProt O43251-10, residues 100-194)
Method: RNA Bind-n-Seq
Molecule type: RNA
Matrix: in vitro
Concentration: 365 nM
Setting: natural RNA segment, single round, ends assumed
Baseline: no-protein control
Direction: higher = stronger binding
Quantity: RBNS enrichment (R)
All sequences stand within: GGGAGUUCUACAGUCCGACGAUC … UGGAAUUCUCGGGUGCCAA
Construct (chain): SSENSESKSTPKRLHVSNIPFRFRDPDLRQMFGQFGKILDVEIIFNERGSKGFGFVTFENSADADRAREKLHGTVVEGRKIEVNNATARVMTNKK
Sequence = GCUGUUCGCCUUCCUGCUGGUUGAUUGCAGAACCACCUCUGAGACCUCUGUACCUGCUCUUGGAAUGUCUCUGUCUUUGCCCUGCCGCCCACUUCCCGUGCCUAUGAUUU; result = 3.99
Sequence = AAGGUGGCAGGGCUGUGAUGGCCCUUCCUACACACCUGGACUCUGCCUACCCACUCCAGGACUCUCUCCCUCCCCCCAACCCCAUCCCCAUCUCUGAGCUAUGGGGCAAU; result = 0.343
Sequence = CUGAGAUCAGUACUCCUCUCUUAAGUAUUUAUUAUUAUUAUUAUUUACUUUACCUCAAGCAGACAGACAUAGGUUUUGAGGCUUGAAUACAUGGCAGUGGAAUACAAGGC; result = 0.526
Sequence = AGCCUGGCCAGGUGGCCCUCCACGUGAGGUCAUGGUCACAGCAUGGGGGCCUUGAGUGCCUGGCCAGGUGGCCCUCCACGUGAGGUCAUGGUCACAGCAUGGAGGCCUUG; result = 10.1
Sequence = UGGUUUCUCUGAAAAAACGAGGUAAUUCCCUGAGCCCAACCCUGAUCCUCAAGGACCUGUAAUUGUGUGGUAUUUAAAAUUAAAAUAACAUUAUUUUUAUUUUGACUUUU; result = 0.463
Sequence = AAACAACGGGAAAGUUCUUGACAGAGUCUGUGUCCGCUCAGUCCCUGCACUUUUCCUUUCCAAAUGCAUCUCGUUGGAUAUGGAAUAGAUCGUAGAUGUUGUAGACUGAG; result = 1.71
Sequence = AUCUGAAUUUCAGAUUCAGAUCAGGCAUUGGCUGUAAAGUCUACCACGAAGUCCCAAUCUACCCUUCCCUCAACCUCUUUCUCAAGGAGGAAACUCCCCACCUCACCCUG; result = 0.7
Sequence = UGUGACAUUUAUAUAUUGAAUUAAUAUCCCUACAUGUAUUGCACAUUGUAAAAAGUUUUAGUUUUGAUGAGUUGUGAGUUUACCUUGUAUACUGUAGGCACACUUUGCAC; result = 0.629

Repeated from above (series 3):
Sequence = AAAACCCAGCAGAAUGUAAUUCAGUAUUUGUUUAUUGGCUGUUUUUUGACAGAUUGUUGAAAUUAAAUGAAUUGAAAGGGAAACUCAGAGUACUAGGACGUUUAUUAAAAGGAAAAAAAU; result = 1.55 ratio
Sequence = GAGAGUGACCAGACAUUAGCAGCUCUGCUCAGCCCUAAAGAAAGUAGUGGAGGAGAAAAAGAAGUACCUCCCCCUCCUAAAGAGACACUGCCUGAUUCAGGAUUUUCUGCCAAUAUUGAG; result = 0.176 ratio
Sequence = CGGGAUGAGGAGGUCAGCUCUGCUGACAUCAGUAGUUCGUCUGAAGUGAUUUCGCAGCACCUAGUAUCUUACAGGAACAUCGAAGAGCUUCAGCAGCAGAAUCAGCGUCUGCUAUUCGCU; result = 0.216 ratio
Sequence = GGAGCAACAAAGCCACUGCGGCCUCCAUUUGGGCCAAGCUCUGACUGCAAUGAUGCCUCUGCCCCGACCCGGGCCUCGCUGUGACUGACAAUGCCGCUGCAUCUUUUCAGCAGUCAUUGA; result = 0.0498 ratio
